Assay results pooled from the literature.
Parts stem from different laboratories: compare values within a part only.
Chain of UniProt O15294 (whole entry, looked up): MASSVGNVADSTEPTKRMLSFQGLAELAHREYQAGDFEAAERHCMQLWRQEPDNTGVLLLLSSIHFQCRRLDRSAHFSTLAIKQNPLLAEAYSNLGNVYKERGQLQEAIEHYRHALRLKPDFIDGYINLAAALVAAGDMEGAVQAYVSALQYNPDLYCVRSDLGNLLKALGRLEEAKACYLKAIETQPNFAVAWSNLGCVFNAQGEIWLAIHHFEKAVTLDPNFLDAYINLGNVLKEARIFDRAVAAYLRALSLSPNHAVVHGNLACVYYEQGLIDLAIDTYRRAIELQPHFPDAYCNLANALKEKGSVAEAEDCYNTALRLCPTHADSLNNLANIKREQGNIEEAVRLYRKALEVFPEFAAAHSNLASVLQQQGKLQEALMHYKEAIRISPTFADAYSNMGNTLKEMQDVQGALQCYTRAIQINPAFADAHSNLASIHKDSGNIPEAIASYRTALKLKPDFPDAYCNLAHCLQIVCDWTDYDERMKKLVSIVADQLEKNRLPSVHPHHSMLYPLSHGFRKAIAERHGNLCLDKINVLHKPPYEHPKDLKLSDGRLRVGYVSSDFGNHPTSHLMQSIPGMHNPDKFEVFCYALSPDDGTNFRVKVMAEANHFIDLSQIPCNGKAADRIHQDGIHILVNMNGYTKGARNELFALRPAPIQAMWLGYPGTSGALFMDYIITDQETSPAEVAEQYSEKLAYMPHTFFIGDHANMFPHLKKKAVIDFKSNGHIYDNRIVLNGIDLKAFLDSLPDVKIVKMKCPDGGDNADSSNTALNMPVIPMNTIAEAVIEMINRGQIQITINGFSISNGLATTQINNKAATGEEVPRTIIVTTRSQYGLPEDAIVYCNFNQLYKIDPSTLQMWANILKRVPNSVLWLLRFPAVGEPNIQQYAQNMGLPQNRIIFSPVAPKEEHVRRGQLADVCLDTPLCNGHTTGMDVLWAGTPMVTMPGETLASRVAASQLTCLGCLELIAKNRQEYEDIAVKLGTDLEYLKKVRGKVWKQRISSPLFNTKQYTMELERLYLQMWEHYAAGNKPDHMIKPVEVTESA

Sample 1
Target: Prothrombin, mature alpha-thrombin (F2, Homo sapiens, UniProt P00734)
Technique: aptamer microarray, sandwich
Form: DNA with 2'F-ANA
Sample: in vitro
Concentration: 200 nM
Notes: whole 15-mer aptamer, many near background
Together with: Cy3 exosite-II aptamer, 400 nM
Reading: higher = stronger binding
Measurement: mean fluorescence intensity
Oligonucleotide: GGTTGGTGTGGTTGG
Modification = 2'F-ANA at 3 4 5 6 8 10 11 13 14; result = 49.3 a.u.
Modification = 2'F-ANA at 5 9 10 12 13; result = 47.3 a.u.
Modification = 2'F-ANA at 1 6 9 10 12 14; result = 46.4 a.u.
Modification = 2'F-ANA at 1 2 3 4 5 9 10 11 12 13; result = 51.2 a.u.
Modification = 2'F-ANA at 1 2 4 5 7 8 9 10 11 12 13; result = 50.1 a.u.
Modification = 2'F-ANA at 2 5 6 8 9 10 11 12 15; result = 48.5 a.u.
Modification = 2'F-ANA at 4 6 12 13 14; result = 96.6 a.u.
Modification = 2'F-ANA at 3 7 13 14 15; result = 680 a.u.

Sample 2
Target: PABPC1L2, full length, GST fusion (mouse, UniProt A0ABA7IW68)
Technique: RNAcompete
Form: RNA
Sample: in vitro
Concentration: 20 nM
Notes: 7-mer, probes averaged, single round
Reference: mean of 7-mers
Reading: higher = stronger binding
Measurement: 7-mer Z-score
Target sequence (chain): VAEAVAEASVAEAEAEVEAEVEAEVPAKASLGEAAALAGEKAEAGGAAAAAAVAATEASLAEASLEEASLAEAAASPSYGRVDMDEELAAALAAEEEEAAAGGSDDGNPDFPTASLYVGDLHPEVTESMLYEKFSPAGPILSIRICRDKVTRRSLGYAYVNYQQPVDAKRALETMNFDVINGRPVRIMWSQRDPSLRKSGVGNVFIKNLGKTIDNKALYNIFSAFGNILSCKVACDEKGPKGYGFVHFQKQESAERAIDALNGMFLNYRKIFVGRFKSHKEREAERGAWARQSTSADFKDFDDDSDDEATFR
Oligonucleotide = AUUAUAG; result = -0.249
Oligonucleotide = UGUCUGU; result = -0.345
Oligonucleotide = GGCCGGC; result = -0.271
Oligonucleotide = AAGGAAA; result = 0.711
Oligonucleotide = GCGGCAU; result = -0.13
Oligonucleotide = ACCCUGG; result = -0.306
Oligonucleotide = GAUUUAA; result = 0.233
Oligonucleotide = UAGCGGU; result = -0.179

Other studies, line by line
Substance = NDUFB5 (Homo sapiens, UniProt O43674); target or system = NDUFA11 (Homo sapiens, UniProt Q86Y39); assay = cross-linking MS; system = cell fractions; setting = together with: DSSO; measurement = cross-linked residues; result = K158 to K138
Substance = HLYTFQHHRSEWLGR; target or system = OGT (Homo sapiens, UniProt O15294); assay = binding, phage display NGS; system = peptide; setting = concentration not given; scale = reference: input library; measurement = enrichment fold change; result = 2.58
Substance = PTBP1 (Homo sapiens, UniProt P26599); target or system = MATR3 (Homo sapiens, UniProt P43243); assay = cross-linking MS; setting = hits only; measurement = interaction screen; result = cross-linked
Substance = UQCRQ (Homo sapiens, UniProt O14949); target or system = UQCRC2 (Homo sapiens, UniProt P22695); assay = cross-linking MS; system = cell fractions; setting = together with: DMTMM; measurement = cross-linked residues; result = G2 to D153
Substance = NDUFB8 (Homo sapiens, UniProt O95169); target or system = CYCS (Homo sapiens, UniProt P99999); assay = cross-linking MS; system = cell fractions; setting = together with: DSSO; measurement = cross-linked residues; result = K176 to K40

Excerpt of the above (sample 1):
Modification = 2'F-ANA at 2 5 6 8 9 10 11 12 15; result = 48.5 a.u.
Modification = 2'F-ANA at 4 6 12 13 14; result = 96.6 a.u.
